Measurements gathered from unrelated publications.
A part holds a random share of what one study measured.
Chain of UniProt Q8IYT8 (whole entry, looked up): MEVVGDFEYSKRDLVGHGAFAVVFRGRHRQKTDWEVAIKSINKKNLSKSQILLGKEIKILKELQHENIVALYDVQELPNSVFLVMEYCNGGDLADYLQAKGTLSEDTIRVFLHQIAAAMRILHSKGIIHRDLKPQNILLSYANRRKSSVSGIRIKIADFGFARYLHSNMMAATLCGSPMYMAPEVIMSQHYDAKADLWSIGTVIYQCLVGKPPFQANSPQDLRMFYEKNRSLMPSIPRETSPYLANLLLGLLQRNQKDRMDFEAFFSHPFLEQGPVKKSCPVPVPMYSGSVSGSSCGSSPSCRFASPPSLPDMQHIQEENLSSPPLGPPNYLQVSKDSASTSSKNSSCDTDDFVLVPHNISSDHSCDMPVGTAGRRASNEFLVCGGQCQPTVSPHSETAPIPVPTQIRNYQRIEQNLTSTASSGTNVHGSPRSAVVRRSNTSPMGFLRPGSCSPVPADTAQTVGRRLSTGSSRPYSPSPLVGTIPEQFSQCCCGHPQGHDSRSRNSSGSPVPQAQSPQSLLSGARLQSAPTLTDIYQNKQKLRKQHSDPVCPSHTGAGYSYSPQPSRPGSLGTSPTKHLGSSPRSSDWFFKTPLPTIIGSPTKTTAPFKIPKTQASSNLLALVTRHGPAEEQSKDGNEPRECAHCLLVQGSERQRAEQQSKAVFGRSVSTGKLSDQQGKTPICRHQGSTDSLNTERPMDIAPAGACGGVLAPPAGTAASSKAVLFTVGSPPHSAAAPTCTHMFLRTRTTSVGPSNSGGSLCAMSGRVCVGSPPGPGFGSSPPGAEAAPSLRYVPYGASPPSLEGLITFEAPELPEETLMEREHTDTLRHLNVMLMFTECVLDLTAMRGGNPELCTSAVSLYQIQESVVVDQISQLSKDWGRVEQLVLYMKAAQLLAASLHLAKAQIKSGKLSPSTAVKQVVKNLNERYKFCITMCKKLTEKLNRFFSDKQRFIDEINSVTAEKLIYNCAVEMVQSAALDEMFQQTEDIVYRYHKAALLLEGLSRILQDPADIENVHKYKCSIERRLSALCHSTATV
Chain of UniProt Q9NSY1 (whole entry, looked up): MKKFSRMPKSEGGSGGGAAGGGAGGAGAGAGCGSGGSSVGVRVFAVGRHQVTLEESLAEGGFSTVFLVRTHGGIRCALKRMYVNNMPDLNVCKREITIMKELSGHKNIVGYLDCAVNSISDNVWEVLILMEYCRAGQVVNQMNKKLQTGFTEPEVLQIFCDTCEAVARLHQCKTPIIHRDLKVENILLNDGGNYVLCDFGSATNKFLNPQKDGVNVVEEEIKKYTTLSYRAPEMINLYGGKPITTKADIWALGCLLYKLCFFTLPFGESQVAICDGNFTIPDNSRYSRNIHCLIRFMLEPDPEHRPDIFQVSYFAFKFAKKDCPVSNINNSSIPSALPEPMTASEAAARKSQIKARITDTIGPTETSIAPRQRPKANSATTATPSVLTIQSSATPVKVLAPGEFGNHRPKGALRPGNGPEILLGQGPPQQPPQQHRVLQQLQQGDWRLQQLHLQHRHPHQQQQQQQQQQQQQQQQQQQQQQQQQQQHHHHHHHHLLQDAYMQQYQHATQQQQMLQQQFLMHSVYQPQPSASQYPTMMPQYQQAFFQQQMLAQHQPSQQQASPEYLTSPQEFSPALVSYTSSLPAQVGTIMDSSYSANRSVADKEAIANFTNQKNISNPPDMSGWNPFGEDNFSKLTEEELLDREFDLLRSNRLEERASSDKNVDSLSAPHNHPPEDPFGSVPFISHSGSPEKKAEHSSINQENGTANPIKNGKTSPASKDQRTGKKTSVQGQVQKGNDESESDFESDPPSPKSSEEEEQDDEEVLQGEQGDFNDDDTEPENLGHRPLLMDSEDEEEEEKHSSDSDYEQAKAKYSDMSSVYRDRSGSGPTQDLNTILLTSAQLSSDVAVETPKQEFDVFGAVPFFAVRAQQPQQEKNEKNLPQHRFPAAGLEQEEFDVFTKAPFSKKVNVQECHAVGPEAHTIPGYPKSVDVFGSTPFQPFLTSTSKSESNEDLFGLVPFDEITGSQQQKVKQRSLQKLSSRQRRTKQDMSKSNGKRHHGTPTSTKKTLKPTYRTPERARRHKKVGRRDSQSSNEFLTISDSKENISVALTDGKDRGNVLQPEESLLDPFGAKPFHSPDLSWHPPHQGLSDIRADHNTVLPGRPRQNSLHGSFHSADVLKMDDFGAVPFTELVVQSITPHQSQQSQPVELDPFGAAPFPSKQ
Chain of UniProt Q15831 (whole entry, looked up): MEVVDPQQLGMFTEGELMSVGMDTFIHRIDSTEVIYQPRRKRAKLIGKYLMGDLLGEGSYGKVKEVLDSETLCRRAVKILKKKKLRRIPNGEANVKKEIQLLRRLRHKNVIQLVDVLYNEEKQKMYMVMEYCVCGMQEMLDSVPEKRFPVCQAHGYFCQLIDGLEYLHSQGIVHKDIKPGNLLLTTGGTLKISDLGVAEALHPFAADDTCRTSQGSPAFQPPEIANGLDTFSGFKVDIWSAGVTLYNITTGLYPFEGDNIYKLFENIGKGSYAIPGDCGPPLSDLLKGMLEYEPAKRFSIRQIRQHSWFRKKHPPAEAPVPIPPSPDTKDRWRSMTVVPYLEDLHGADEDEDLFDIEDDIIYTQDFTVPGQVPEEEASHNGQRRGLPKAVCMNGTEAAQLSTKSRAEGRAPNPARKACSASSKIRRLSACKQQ
Chain of UniProt P29320 (whole entry, looked up): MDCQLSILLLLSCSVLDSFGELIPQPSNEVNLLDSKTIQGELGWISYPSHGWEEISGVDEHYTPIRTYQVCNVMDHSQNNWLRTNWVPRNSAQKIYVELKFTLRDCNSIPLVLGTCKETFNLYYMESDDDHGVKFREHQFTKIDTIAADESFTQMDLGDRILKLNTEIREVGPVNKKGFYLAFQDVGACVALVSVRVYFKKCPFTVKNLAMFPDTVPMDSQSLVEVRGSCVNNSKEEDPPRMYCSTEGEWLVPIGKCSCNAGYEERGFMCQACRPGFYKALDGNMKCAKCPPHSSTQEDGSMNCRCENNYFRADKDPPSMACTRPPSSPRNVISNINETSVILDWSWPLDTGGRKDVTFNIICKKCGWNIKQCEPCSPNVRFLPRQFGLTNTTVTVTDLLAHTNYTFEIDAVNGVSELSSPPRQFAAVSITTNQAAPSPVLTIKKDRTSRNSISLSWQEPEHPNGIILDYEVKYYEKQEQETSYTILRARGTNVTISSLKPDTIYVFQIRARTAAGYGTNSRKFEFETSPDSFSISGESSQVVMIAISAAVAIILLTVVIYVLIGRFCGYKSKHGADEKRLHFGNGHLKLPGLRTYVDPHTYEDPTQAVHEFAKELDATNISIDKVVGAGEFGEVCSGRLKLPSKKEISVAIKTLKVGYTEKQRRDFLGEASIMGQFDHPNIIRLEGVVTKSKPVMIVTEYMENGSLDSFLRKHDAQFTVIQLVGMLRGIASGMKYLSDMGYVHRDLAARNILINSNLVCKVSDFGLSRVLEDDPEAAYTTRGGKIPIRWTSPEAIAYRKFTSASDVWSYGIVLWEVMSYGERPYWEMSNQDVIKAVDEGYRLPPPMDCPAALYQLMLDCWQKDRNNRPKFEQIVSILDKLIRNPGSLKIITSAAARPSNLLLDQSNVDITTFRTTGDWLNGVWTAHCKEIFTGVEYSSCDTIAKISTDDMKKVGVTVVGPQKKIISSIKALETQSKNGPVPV
Chain of UniProt P42685 (whole entry, looked up): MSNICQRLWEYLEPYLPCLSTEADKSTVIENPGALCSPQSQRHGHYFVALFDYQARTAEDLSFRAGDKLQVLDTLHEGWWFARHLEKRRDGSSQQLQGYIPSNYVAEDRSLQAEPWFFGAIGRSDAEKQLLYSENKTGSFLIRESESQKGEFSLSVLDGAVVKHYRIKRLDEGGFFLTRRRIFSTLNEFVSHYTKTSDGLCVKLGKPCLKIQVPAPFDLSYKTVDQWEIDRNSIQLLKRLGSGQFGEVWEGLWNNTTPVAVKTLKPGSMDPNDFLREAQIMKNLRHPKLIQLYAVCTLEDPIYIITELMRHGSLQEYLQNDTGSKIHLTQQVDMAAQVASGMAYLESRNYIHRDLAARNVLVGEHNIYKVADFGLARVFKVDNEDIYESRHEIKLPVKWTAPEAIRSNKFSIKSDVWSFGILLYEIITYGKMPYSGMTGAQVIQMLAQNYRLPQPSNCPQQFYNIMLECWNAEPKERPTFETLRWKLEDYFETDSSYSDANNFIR
Chain of UniProt Q15759 (whole entry, looked up): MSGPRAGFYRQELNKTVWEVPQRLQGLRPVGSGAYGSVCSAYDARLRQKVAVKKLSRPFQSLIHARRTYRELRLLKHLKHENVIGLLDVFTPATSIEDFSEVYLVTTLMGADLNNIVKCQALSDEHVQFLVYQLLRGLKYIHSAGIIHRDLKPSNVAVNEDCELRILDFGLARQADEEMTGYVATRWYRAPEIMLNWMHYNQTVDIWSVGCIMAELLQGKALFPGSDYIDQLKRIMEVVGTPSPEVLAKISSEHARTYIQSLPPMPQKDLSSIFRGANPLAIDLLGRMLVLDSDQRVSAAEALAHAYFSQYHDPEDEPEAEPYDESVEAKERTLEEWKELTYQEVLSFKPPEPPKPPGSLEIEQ
Chain of UniProt Q9Y6M4 (whole entry, looked up): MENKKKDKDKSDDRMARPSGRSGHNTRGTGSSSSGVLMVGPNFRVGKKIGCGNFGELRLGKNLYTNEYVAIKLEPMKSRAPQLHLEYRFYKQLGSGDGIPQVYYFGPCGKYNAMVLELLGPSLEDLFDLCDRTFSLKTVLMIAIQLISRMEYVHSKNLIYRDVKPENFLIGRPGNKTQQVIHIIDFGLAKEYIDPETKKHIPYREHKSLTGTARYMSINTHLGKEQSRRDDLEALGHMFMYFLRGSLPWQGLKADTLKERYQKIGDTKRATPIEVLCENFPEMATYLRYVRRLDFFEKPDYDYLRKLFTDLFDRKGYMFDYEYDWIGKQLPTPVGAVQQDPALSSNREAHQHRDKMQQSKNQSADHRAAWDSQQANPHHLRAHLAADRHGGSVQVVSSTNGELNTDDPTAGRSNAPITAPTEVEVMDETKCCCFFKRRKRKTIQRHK

Sample 1 — method: aptamer microarray, sandwich; molecule type: DNA with 2'F-ANA; medium: in vitro; tested at: 200 nM; added: Cy3 exosite-II aptamer, 400 nM; direction: higher = stronger binding; quantity: mean fluorescence intensity; oligonucleotide: GGTTGGTGTGGTTGG
Target: Prothrombin, mature alpha-thrombin (F2, Homo sapiens, UniProt P00734)
Setting: whole 15-mer aptamer, many near background
2'F-ANA at 1 5 6 7 10 11 13: 53.7 a.u.
2'F-ANA at 1 3 4 5 6 7 9 10 12 14 15: 45.5 a.u.
2'F-ANA at 2 5 6 7 8 11 12: 123 a.u.
2'F-ANA at 3 5 6 8 9 11 14 15: 54.9 a.u.
2'F-ANA at 5 6 10 13: 45 a.u.
2'F-ANA at 3 6 7 9 14: 442 a.u.
2'F-ANA at 4 5 6 8 9 10 11 12 13 15: 48.7 a.u.
2'F-ANA at 1 5 8 9 10 14 15: 97.1 a.u.

Sample 2 — method: protein binding microarray; molecule type: double-stranded DNA, one strand shown; medium: in vitro; tested at: not given; baseline: not given; direction: higher = stronger binding; quantity: E-score
Target: Histone acetyltransferase KAT6A, both winged helices, GST fusion (KAT6A, Homo sapiens, UniProt Q92794, residues 1-181)
Setting: 8-mer, flanks averaged, mean of 2 arrays, mostly near background
Target sequence (chain): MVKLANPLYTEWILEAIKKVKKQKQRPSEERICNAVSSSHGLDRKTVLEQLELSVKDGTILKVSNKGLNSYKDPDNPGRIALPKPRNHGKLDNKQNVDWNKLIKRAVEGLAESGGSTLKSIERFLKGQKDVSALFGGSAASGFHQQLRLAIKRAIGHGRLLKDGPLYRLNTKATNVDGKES
ACACCACG: -0.0216
CTTACACA: -0.0969
AGCTGTAG: -0.109
CAACAACC: -0.144
CCCATCGG: -0.0177
CCTCATAG: -0.162
AACCTATC: -0.0987
ATTATAGA: 0.0272

Sample 3 — effect on: enzyme activity; action: inhibitor; tested at: 0.5 µM; baseline: control; quantity: remaining activity
Compound: O=Nc1c(-c2c(O)[nH]c3ccccc23)[nH]c2ccccc12
Ephrin type-A receptor 3 (EPHA3, Homo sapiens, UniProt P29320): 92%
Serine/threonine-protein kinase Nek6 (NEK6, Homo sapiens, UniProt Q9HC98): 92.2%
Tyrosine-protein kinase Lck (LCK, Homo sapiens, UniProt P06239): 77.1%
Casein kinase I isoform gamma-3 (CSNK1G3, Homo sapiens, UniProt Q9Y6M4): 81.9%
Serine/threonine-protein kinase Nek1 (NEK1, Homo sapiens, UniProt Q96PY6): 96.9%
Rhodopsin kinase GRK7 (GRK7, Homo sapiens, UniProt Q8WTQ7): 84.4%
Tyrosine-protein kinase Mer (MERTK, Homo sapiens, UniProt Q12866): 82.2%
Tyrosine-protein kinase FRK (FRK, Homo sapiens, UniProt P42685): 73.3%
Casein kinase I isoform gamma-2 (CSNK1G2, Homo sapiens, UniProt P78368): 89.4%
Serine/threonine-protein kinase ULK2 (ULK2, Homo sapiens, UniProt Q8IYT8): 103%
MAP kinase-activated protein kinase 2 (MAPKAPK2, Homo sapiens, UniProt P49137): 105%
Macrophage-stimulating protein receptor (MST1R, Homo sapiens, UniProt Q04912): 103%
Serine/threonine-protein kinase TAO2 (TAOK2, Homo sapiens, UniProt Q9UL54): 96.3%

Sample 4 — effect on: cell-free assay; method: competition with immobilised ligand; tested at: 1 µM; quantity: remaining binding
SMILES: O=C(Nc1cccnn1)N1CC(C/C=C/c2cncc(Oc3ccc(C(F)(F)F)cn3)n2)C1
Mitogen-activated protein kinase 11 (MAPK11, Homo sapiens, UniProt Q15759): 100%
BMP-2-inducible protein kinase (BMP2K, Homo sapiens, UniProt Q9NSY1): 100%
Serine/threonine-protein kinase STK11 (STK11, Homo sapiens, UniProt Q15831): 64%
